Published values of several laboratories.
Each numbered part is a random draw from the data of one study; scales do not carry over between parts.

Block 1 — technique: protein-binding microarray; form: double-stranded DNA, one strand shown; sample: in vitro; tested at: not given; reading: higher = stronger binding
Target: Protein C-ets-1 (ETS1, Homo sapiens, UniProt P14921, residues 1-441, full length assumed)
Notes: k-mer, scored over probes, only values ≥0.25
Residues (chain): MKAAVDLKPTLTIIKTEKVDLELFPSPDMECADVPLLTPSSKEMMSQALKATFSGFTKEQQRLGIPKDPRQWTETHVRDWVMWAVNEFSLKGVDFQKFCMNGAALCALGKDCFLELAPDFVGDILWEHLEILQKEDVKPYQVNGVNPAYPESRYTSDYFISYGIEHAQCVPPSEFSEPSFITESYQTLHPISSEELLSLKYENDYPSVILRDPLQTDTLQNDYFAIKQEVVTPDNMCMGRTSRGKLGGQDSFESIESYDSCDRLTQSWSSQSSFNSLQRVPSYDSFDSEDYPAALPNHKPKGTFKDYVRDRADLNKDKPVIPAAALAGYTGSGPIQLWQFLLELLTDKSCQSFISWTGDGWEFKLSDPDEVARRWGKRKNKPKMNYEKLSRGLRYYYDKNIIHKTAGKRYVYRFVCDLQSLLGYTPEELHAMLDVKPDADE
| Strand | E-score |
| --- | --- |
| AGGATGAG | 0.33 |
| AGCATCCG | 0.477 |
| AGTATTTC | 0.253 |

Block 2 — technique: protein binding microarray; form: double-stranded DNA, one strand shown; sample: in vitro; tested at: not given; relative to: not given; reading: higher = stronger binding
Target: Histone acetyltransferase KAT6A, winged helix 1, GST fusion (KAT6A, Homo sapiens, UniProt Q92794, residues 1-85)
Notes: 8-mer, flanks averaged, mean of 2 arrays, mostly near background
Target sequence (chain): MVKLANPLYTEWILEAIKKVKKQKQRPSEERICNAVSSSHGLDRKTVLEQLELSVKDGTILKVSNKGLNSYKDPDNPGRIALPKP
| Strand | E-score |
| --- | --- |
| AGAGTGAG | -0.208 |
| CAAATGCA | -0.179 |
| GAGTTAAC | -0.14 |
| CTCCAGCA | -0.212 |
| ATAGATTC | -0.194 |
| AGTTTGTG | -0.109 |

Block 3 — technique: universal PBM; form: double-stranded DNA, one strand shown; sample: in vitro; tested at: 600 nM; reading: higher = stronger binding
Target: Sal-like protein 4, full length isoform A (SALL4, Homo sapiens, UniProt Q9UJQ4, residues 1-1053)
UniProt Q9UJQ4, sequence (whole entry, looked up): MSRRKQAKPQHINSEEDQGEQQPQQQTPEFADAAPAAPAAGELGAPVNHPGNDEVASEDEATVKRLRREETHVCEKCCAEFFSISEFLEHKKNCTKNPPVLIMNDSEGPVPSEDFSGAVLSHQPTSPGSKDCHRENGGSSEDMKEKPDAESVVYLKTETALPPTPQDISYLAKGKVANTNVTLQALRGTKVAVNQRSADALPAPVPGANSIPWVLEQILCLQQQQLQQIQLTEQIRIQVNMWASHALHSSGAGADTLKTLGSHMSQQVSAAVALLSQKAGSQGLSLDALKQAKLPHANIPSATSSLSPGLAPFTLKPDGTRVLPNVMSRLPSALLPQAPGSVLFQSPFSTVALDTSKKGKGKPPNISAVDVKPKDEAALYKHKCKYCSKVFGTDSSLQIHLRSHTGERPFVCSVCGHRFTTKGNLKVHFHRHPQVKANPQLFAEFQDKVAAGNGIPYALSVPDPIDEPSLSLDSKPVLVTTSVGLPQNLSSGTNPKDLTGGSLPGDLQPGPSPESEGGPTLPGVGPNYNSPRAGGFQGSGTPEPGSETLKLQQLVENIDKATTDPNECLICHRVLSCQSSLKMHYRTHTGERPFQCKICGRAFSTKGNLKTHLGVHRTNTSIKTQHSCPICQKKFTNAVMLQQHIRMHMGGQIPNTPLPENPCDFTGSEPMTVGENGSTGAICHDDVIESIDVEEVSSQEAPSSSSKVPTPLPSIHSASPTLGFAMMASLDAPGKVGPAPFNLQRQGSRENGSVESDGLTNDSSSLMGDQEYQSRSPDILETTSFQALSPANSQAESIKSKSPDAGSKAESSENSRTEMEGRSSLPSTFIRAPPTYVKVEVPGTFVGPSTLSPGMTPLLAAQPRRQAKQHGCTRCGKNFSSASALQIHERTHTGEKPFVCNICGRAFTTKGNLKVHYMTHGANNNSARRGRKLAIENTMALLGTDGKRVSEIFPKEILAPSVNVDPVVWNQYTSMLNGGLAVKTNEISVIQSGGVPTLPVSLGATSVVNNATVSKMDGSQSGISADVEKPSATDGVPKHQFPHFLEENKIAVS
Notes: 8-mer, flanks averaged, mean of replicates
| Strand | E-score |
| --- | --- |
| CTCTAAGA | 0.033 |
| GGACCTAC | -0.0482 |
| AAACCCCG | -0.146 |
| GGCGAGCC | -0.36 |
| CGAGAGGC | -0.291 |

Mixed results
| Substance | target | test | system | conditions | scale | endpoint | result |
| --- | --- | --- | --- | --- | --- | --- | --- |
| PhoQ, residues 284 288 289 292 302 303 SSYNSA | PhoP, residues 12 14 15 18 19 NIMAP (Escherichia coli, UniProt P23836) | Sort-seq, item: YFP reporter | E. coli | PhoQ-PhoP variant library, added: 10 µM Mg2+ | relative to: high Mg2+ state, higher = stronger signaling | fold induction | 0.752 |

Repeated from above (block 2):
| Strand | E-score |
| --- | --- |
| AGAGTGAG | -0.208 |
